Results pooled from the literature.
Protocols differ between the studies behind these lines. ± gives the spread as reported.

CSCC[C@H](NC(=O)[C@H](CC(C)C)NC(=O)[C@H](Cc1c[nH]cn1)NC(=O)CNC(=O)[C@@H](NC(=O)[C@H](C)NC(=O)[C@H](Cc1c[nH]c2ccccc12)NC(=O)[C@H](CCC(N)=O)NC(=O)CCCCCCCNC(=O)CCC(=O)Nc1ccc(CNC23CNCCNCC(N)(CNCCNC2)CNCCNC3)cc1)C(C)C)C(N)=O [copper-64 labelled]  tissue uptake (female SCID mice, PC-3 xenograft, pancreas; intravenous, 0.6 MBq, 4 h): 48.4 ± 5.25 %ID/g
CC(C)C[C@H](NC(=O)[C@H](Cc1ccc(O)cc1)NC(=O)[C@@H](CCCNC(=N)N)NC(=O)[C@@H](CO)NC(=O)[C@H](Cc1ccccc1)NC(=O)[C@H](CC1CCCCC1)NC(=O)[C@H](CC(=O)O)NC(=O)CCC(C(=O)O)N1CCCN2CCN(CCCN(CC(=O)O)CC2)CC1)C(=O)N[C@@H](Cc1c[nH]c2ccccc12)C(=O)N[C@@H](CO)C(=O)O (stereo partly shown) [copper-64 labelled]  tissue uptake (female NMRI nude mice, stomach; 22 h p.i.): 0.7 ± 0.1 %ID/g
CSCC[C@H](NC(=O)[C@H](CC(C)C)NC(=O)[C@H](Cc1c[nH]cn1)NC(=O)CNC(=O)[C@@H](NC(=O)[C@H](C)NC(=O)[C@H](Cc1c[nH]c2ccccc12)NC(=O)[C@H](CCC(N)=O)NC(=O)CNC(=O)[C@H](CO)NC(=O)CNC(=O)CCCCCCCNC(=O)CCC(=O)Nc1ccc(CNC23CNCCNCC(N)(CNCCNC2)CNCCNC3)cc1)C(C)C)C(N)=O [copper-64 labelled]  tissue uptake (female SCID mice, PC-3 xenograft, pancreas; intravenous, 0.6 MBq, 4 h): 29.5 ± 1.16 %ID/g
N=C(N)NCCC[C@@H]1NC(=O)[C@H](CCCCNC(=O)CC[C@H](NC(=O)CCOCCOCCOCCOCCNC(=O)CN2CCN(CC(=O)O)CCN(CC(=O)O)CCN(CC(=O)O)CC2)C(=O)NCCCC[C@@H]2NC(=O)[C@@H](Cc3ccccc3)NC(=O)[C@H](CC(=O)O)NC(=O)CNC(=O)[C@H](CCCNC(=N)N)NC2=O)NC(=O)[C@@H](Cc2ccccc2)NC(=O)[C@H](CC(=O)O)NC(=O)CNC1=O [indium-111 labelled]  tissue uptake (female athymic nude mice, liver; intravenous, 3 µCi, 1 h, U-87 MG glioma xenograft): 2.57 ± 0.42 %ID/g
N=C(N)NCCC[C@@H]1NC(=O)[C@H](CCCCNC(=O)CCOCCOCCOCCOCCNC(=O)CC[C@H](NC(=O)[C@H](CCCCNC(=O)c2ccc(NN)nc2)NC(=O)c2ccc(NN)nc2)C(=O)NCCOCCOCCOCCOCCC(=O)NCCCC[C@@H]2NC(=O)[C@@H](Cc3ccccc3)NC(=O)[C@H](CC(=O)O)NC(=O)CNC(=O)[C@H](CCCNC(=N)N)NC2=O)NC(=O)[C@@H](Cc2ccccc2)NC(=O)[C@H](CC(=O)O)NC(=O)CNC1=O [technetium-99m labelled]  tissue ratio (female athymic nude mice; intravenous, 1 h, U-87 MG glioma xenograft; baseline: tumour over liver): 3.66 ± 0.13
N=C(N)NCCC[C@@H]1NC(=O)[C@H](CCCCNC(=O)CCOCCOCCOCCOCCNC(=O)CN2CCN(CC(=O)O)CCN(CC(=O)O)CCN(CC(=O)O)CC2)NC(=O)[C@@H](Cc2ccccc2)NC(=O)[C@H](CC(=O)O)NC(=O)CNC1=O [indium-111 labelled]  tissue uptake (athymic nude mice, female, U-87 MG glioma xenograft, U-87 MG tumour; intravenous, 3 µCi, 1 h): 2.54 ± 0.37 %ID/g
N=C(N)NCCC[C@@H]1NC(=O)[C@H](CCCCNC(=O)CC[C@H](NC(=O)[C@H](CCCCNC(=O)c2ccc(NN)nc2)NC(=O)c2ccc(NN)nc2)C(=O)NCCCC[C@@H]2NC(=O)[C@@H](Cc3ccccc3)NC(=O)[C@H](CC(=O)O)NC(=O)CNC(=O)[C@H](CCCNC(=N)N)NC2=O)NC(=O)[C@@H](Cc2ccccc2)NC(=O)[C@H](CC(=O)O)NC(=O)CNC1=O [technetium-99m labelled]  tissue ratio (female athymic nude mice; intravenous, 1 h, U-87 MG glioma xenograft; baseline: tumour over lung): 1.4 ± 0.28
N=C(N)NCCC[C@H](NC(=O)[C@H](CCCCN)NC(=O)[C@H](CCC(N)=O)NC(=O)CCOCCOCCOCCNC(=O)CN1CCN(CC(=O)O)CCN(CC(=O)O)CCN(CC(=O)O)CC1)C(=O)N[C@@H](CCCCN)C(=O)N[C@@H](CCCNC(=N)N)C(=O)N[C@@H](CCCCN)C(=O)N[C@@H](CCCCN)C(=O)N[C@@H](CO)C(=O)N[C@@H](CCCNC(=N)N)C(=O)N[C@@H](Cc1ccc(O)cc1)C(=O)N[C@@H](CCCCN)C(=O)N[C@@H](CO)C(=O)O [copper-64 labelled]  tissue uptake (male C57BL/6 mice, B16-F10 tumour, muscle; intravenous, 60 min): 0.29 ± 0.01 %ID/g
N=C(N)NCCC[C@@H]1NC(=O)[C@H](CCCCNC(=O)CNC(=O)CNC(=O)CNC(=O)CC[C@H](NC(=O)CCOCCOCCOCCOCCNC(=O)CC[C@H](NC(=O)CN2CCN(CC(=O)O)CCN(CC(=O)O)CCN(CC(=O)O)CC2)C(=O)NCCOCCOCCOCCOCCC(=O)N[C@@H](CCC(=O)NCC(=O)NCC(=O)NCC(=O)NCCCC[C@@H]2NC(=O)[C@@H](Cc3ccccc3)NC(=O)[C@H](CC(=O)O)NC(=O)CNC(=O)[C@H](CCCNC(=N)N)NC2=O)C(=O)NCC(=O)NCC(=O)NCC(=O)NCCCC[C@@H]2NC(=O)[C@@H](Cc3ccccc3)NC(=O)[C@H](CC(=O)O)NC(=O)CNC(=O)[C@H](CCCNC(=N)N)NC2=O)C(=O)NCC(=O)NCC(=O)NCC(=O)NCCCC[C@@H]2NC(=O)[C@@H](Cc3ccccc3)NC(=O)[C@H](CC(=O)O)NC(=O)CNC(=O)[C@H](CCCNC(=N)N)NC2=O)NC(=O)[C@@H](Cc2ccccc2)NC(=O)[C@H](CC(=O)O)NC(=O)CNC1=O [indium-111 labelled]  tissue uptake (female athymic nude mice, bone; intravenous, 3 µCi, 0.5 h, U-87 MG glioma xenograft): 2.17 ± 0.42 %ID/g
N=C(N)NCCC[C@@H]1NC(=O)[C@H](CCCCNC(=O)CNC(=O)CNC(=O)CNC(=O)CC[C@H](NC(=O)CNC(=O)CNC(=O)CNC(=O)[C@H](CCCCNC(=O)c2ccc(NN)nc2)NC(=O)c2ccc(NN)nc2)C(=O)NCC(=O)NCC(=O)NCC(=O)NCCCC[C@@H]2NC(=O)[C@@H](Cc3ccccc3)NC(=O)[C@H](CC(=O)O)NC(=O)CNC(=O)[C@H](CCCNC(=N)N)NC2=O)NC(=O)[C@@H](Cc2ccccc2)NC(=O)[C@H](CC(=O)O)NC(=O)CNC1=O [technetium-99m labelled]  tissue ratio (female athymic nude mice; intravenous, 1 h, U-87 MG glioma xenograft; baseline: tumour over liver): 2.92 ± 0.64

A few entries again:
N=C(N)NCCC[C@@H]1NC(=O)[C@H](CCCCNC(=O)CC[C@H](NC(=O)CCOCCOCCOCCOCCNC(=O)CN2CCN(CC(=O)O)CCN(CC(=O)O)CCN(CC(=O)O)CC2)C(=O)NCCCC[C@@H]2NC(=O)[C@@H](Cc3ccccc3)NC(=O)[C@H](CC(=O)O)NC(=O)CNC(=O)[C@H](CCCNC(=N)N)NC2=O)NC(=O)[C@@H](Cc2ccccc2)NC(=O)[C@H](CC(=O)O)NC(=O)CNC1=O [indium-111 labelled]  tissue uptake (female athymic nude mice, liver; intravenous, 3 µCi, 1 h, U-87 MG glioma xenograft): 2.57 ± 0.42 %ID/g
